Experimental data collected from several papers.
Lines come from different studies, so protocols differ. Several values in a cell are separate wells, animals, samples, runs or records. ± marks the error that the study gave.
ACHE: Acetylcholinesterase (ACHE, Homo sapiens, UniProt P22303)
UniProt P22303, sequence (whole entry, looked up): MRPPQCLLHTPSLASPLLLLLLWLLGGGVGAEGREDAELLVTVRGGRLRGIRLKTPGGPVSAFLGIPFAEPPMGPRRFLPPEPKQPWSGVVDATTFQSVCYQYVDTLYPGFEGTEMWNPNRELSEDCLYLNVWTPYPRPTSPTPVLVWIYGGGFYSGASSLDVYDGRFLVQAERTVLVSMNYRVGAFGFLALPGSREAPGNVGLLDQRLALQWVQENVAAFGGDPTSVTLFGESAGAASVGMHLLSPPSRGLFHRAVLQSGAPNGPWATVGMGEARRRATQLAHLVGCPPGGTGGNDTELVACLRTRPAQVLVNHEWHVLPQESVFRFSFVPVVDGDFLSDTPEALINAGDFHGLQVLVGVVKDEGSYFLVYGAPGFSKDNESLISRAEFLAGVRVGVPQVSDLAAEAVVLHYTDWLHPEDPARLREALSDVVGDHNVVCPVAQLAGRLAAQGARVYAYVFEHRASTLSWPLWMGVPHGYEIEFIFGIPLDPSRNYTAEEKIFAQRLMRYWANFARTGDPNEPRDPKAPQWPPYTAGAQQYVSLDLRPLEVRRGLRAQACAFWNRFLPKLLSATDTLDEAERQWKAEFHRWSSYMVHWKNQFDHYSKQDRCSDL
PFF0160c E182D: Dihydroorotate dehydrogenase (quinone), mitochondrial (PFF0160c, Plasmodium falciparum, UniProt Q08210, E182D)
UniProt P27361, sequence (whole entry, looked up): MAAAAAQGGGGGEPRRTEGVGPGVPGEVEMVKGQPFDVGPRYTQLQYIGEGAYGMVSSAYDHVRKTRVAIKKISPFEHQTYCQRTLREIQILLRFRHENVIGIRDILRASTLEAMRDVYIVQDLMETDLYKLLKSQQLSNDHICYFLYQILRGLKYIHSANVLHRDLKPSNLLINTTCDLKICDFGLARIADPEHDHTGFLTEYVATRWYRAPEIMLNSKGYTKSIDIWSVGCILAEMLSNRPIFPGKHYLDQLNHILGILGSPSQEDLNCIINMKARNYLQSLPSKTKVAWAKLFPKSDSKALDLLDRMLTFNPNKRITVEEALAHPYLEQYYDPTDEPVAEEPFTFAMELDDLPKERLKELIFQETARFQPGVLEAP
UniProt Q53H76, sequence (whole entry, looked up): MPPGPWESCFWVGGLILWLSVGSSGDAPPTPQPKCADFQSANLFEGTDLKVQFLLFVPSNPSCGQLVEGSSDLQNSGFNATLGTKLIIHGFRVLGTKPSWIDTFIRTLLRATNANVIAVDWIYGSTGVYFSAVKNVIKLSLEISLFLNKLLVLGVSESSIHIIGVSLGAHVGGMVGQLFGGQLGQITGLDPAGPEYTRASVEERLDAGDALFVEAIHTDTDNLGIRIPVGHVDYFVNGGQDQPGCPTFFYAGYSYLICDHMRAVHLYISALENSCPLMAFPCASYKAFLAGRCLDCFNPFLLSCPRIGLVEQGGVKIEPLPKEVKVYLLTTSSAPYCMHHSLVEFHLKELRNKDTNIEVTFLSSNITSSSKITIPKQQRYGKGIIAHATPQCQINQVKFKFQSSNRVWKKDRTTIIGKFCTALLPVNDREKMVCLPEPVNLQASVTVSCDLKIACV
UniProt O42275, sequence (whole entry, looked up): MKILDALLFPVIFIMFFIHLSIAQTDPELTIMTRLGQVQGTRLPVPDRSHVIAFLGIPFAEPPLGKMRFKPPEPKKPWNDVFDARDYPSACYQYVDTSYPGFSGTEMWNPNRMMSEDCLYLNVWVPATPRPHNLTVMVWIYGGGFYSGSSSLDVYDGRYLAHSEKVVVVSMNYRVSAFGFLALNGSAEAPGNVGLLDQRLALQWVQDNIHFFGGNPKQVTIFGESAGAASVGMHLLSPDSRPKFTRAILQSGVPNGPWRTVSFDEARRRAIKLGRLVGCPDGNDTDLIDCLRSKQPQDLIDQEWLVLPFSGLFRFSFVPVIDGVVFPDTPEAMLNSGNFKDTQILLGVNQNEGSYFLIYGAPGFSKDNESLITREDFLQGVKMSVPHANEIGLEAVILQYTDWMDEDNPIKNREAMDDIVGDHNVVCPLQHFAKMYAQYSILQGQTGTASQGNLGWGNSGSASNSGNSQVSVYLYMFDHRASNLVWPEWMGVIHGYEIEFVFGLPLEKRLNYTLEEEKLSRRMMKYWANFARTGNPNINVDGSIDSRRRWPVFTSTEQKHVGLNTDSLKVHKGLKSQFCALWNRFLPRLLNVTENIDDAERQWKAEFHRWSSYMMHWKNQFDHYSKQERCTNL
UniProt P51617, sequence (whole entry, looked up): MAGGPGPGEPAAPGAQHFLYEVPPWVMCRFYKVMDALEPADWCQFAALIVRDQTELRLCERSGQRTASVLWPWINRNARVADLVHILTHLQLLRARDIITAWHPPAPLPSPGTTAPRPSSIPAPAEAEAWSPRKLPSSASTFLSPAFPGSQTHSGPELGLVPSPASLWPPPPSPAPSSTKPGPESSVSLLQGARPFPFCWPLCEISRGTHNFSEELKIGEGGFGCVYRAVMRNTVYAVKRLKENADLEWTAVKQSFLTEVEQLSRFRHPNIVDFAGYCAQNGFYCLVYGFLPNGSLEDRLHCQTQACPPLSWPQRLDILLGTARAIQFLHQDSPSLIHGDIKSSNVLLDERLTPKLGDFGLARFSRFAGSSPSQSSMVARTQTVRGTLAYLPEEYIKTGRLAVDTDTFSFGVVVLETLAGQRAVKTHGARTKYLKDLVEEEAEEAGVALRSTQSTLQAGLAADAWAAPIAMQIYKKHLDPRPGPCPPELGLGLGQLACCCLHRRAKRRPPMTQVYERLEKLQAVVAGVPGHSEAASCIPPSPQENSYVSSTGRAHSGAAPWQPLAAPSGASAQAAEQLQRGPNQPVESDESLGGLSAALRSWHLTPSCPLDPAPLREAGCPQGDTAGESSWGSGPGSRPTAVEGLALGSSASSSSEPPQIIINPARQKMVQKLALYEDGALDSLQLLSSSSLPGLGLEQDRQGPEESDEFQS
UniProt O70489, sequence (whole entry, looked up): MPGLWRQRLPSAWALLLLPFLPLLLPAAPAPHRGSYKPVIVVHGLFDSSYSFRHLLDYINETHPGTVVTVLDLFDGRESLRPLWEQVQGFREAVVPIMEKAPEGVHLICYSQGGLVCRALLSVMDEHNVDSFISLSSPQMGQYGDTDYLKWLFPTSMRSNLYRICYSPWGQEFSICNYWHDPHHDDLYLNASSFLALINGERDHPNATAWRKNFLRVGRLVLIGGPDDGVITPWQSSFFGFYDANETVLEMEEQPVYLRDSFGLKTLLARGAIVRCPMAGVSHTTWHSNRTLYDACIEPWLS
UniProt Q9Y5Y3, sequence (whole entry, looked up): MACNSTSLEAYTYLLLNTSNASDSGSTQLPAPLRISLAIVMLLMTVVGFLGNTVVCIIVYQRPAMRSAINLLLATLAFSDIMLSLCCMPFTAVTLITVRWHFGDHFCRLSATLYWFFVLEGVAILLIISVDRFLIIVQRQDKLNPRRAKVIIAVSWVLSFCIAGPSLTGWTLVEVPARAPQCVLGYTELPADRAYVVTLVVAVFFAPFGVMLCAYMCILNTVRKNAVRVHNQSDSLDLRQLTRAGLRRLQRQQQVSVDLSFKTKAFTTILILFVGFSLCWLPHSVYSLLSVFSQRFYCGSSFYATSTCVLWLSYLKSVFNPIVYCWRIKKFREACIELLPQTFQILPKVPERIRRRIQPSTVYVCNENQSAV
UniProt Q8N752, sequence (whole entry, looked up): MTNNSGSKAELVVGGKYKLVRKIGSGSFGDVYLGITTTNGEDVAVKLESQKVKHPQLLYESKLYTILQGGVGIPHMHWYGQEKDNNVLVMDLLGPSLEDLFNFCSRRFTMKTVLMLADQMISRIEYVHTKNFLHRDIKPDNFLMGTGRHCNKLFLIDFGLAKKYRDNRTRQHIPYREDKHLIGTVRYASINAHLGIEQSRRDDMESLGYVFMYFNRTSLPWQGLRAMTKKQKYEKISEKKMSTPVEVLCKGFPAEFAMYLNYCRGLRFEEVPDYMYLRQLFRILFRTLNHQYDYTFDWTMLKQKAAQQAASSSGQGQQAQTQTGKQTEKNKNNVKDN
UniProt P00942, sequence (whole entry, unmodified, looked up): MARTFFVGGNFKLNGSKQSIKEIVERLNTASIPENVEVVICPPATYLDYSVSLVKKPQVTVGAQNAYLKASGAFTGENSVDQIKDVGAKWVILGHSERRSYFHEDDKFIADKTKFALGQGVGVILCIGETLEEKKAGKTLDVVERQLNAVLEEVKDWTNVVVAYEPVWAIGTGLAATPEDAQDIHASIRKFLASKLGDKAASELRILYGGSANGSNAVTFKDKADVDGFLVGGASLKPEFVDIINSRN
UniProt P36896, sequence (whole entry, looked up): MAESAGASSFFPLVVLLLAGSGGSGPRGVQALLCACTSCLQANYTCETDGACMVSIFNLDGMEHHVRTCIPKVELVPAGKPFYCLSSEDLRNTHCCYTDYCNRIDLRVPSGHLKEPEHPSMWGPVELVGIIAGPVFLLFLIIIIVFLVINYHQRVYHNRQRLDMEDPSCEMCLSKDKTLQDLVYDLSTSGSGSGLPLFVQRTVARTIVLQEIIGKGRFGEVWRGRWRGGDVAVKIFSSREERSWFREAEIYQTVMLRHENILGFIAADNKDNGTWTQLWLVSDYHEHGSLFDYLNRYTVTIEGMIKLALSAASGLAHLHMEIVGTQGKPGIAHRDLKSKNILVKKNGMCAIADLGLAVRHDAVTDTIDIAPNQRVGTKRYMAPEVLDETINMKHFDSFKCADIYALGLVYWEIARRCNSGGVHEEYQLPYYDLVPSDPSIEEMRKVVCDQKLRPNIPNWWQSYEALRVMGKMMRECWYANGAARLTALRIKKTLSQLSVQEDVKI
UniProt Q91XE4, sequence (whole entry, looked up): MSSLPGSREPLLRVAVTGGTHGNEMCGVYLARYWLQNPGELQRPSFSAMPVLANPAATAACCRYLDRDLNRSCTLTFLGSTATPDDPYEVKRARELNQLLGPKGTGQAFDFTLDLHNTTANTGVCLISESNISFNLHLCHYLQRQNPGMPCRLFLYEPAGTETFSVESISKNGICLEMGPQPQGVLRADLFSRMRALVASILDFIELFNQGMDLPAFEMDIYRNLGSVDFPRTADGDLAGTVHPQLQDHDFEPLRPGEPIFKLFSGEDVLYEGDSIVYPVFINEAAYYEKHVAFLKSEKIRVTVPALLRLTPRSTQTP

SMILES | target | test | system | setting | how to read | endpoint | result
COc1ccc(N2C(=O)N(c3c(C)cccc3Cl)Cc3cnc(Nc4ccc(C5CCN(C)CC5)cc4OC)nc32)nc1 | CDK1 (Homo sapiens, UniProt P06493) | kinase activity |  | 0.5 µM |  | inhibition | 1.88%
CC[C@H](CO)Nc1nc(NCc2ccc(-c3ccccn3)cc2)c2ncn(C(C)C)c2n1 | CLK2 (Homo sapiens, UniProt P49760) | KINOMEscan competition binding |  | 10 µM, primary screen | direction not given | binding score | 4.8
[2H]c1c([2H])c([C@]2([2H])CCCN2C(=O)C(C)(C)Oc2ccc3cn[nH]c3c2)c([2H])c([2H])c1C([2H])([2H])[2H] | ACVR1B (Homo sapiens, UniProt P36896) | KINOMEscan |  | 1 µM | baseline: DMSO control | remaining binding | 81%
O=C(c1ccc(Cl)cc1)N1CCN2C(=O)N(OC(=O)N3CCOc4ccccc43)C(=O)C2C1 (stereo not drawn) | Phospholipase A1 member A (PLA1A, Homo sapiens, UniProt Q53H76) | MS-based ABPP | SW-620 conditioned medium | 10 µM, 1 h, 37 °C | baseline: compound over DMSO, lower = more inhibition | peptide ratio | 1.18 and 0.88
O=C(Nc1cnccc1Cl)N1CCN(Cc2ccc3c(c2)OC(F)(F)O3)CC1 | atrial natriuretic factor receptor |  |  | concentration not given |  | inhibition | 2% and -4%
CC(=O)N[C@@H](CSCCC=O)C(=O)O | N-acyl-aromatic-L-amino acid amidohydrolase (carboxylate-forming) (Acy3, Mus musculus, UniProt Q91XE4) | substrate, fluorescamine |  | without Co2+ |  | kcat | 0.4 s⁻¹
CC[C@@H]1/C=C/C=C/C[C@H](C)[C@H](O)[C@](C)(O)C(=O)[C@H](C)[C@@H](O)[C@H](C)C(=O)[C@H](C)[C@@H](O)[C@H](C)/C=C/C(=O)O[C@H]2[C@@H](C)[C@@H](CC1)O[C@@]1(CC[C@@H](C)[C@@H](C[C@H](C)O)O1)[C@@H]2C | ATP synthase (rhesus monkey) | inhibitor | muscle membrane affinity column | concentration not given |  | maximum ATP hydrolysis reduction | ~60%
Cc1[nH]cnc1CN1CCc2c(c3ccccc3n2C)C1=O | ACHE |  | biochemical | concentration not given |  | activity class | inactive
Cc1ccc2c(c1)C=CC21CCN(C2Cc3ccccc3CC2O)CC1 (racemic) | Vesicular acetylcholine transporter (Rattus norvegicus, UniProt Q62666) |  | rat liver (sigma2) |  | baseline: Ki sigma2 over Ki VAChT | selectivity ratio | 43
COc1cc(Nc2ncc(F)c(Nc3ccc4c(n3)NC(=O)C(C)(C)O4)n2)cc(OC)c1OC | IGF1R (Homo sapiens, UniProt P08069) | KINOMEscan |  | 10 µM |  | inhibition | 81%
COc1ncccc1-c1cnn2ccc(N3CCN(C(=O)OC(C)C)CC3)nc12 | PKN2 (Homo sapiens, UniProt Q16513) | KINOMEscan |  | 1 µM |  | remaining binding | 82%
Nc1ncc(-c2nc(N3CCOCC3)nc(N3CCOCC3)n2)c(C(F)F)n1 | CSNK1A1L (Homo sapiens, UniProt Q8N752) | KINOMEscan |  | 10 µM |  | remaining binding | 74%
Oc1ccc2ccc3cccc4ccc1c2c34 | Aryl hydrocarbon receptor (Danio rerio, UniProt Q9YGV3) | reporter gene, agonist, luciferase reporter | ZF-4 | 3333.33 µM | baseline: vehicle control | fold change | 1.7
CCN(CC)CCOCCOC(=O)C1(c2ccccc2)CCCC1 | ACHE |  | biochemical | concentration not given |  | activity class | inactive
COc1cc(-c2[o+]c3cc(O)cc(O)c3cc2O[C@@H]2O[C@H](CO)[C@@H](O)[C@H](O)[C@H]2O)cc(OC)c1O | Albumin (ALB, Bos taurus, UniProt P02769) | fluorescence quenching |  | concentration not given |  | binding enthalpy | 2.22 kcal/mol
COC(=O)[C@@]1(O)C[C@H]2O[C@]1(C)n1c3ccccc3c3c4c(c5c6ccccc6n2c5c31)C(=O)NC4 | MAPK3 (Homo sapiens, UniProt P27361) | ADP-Glo |  | 8.45 µM, added: MBP substrate |  | kinase activity | 101% and 104% and 129%
Cc1cc(=O)oc2c1ccc1oc(C(O)c3ccc(Cl)cc3)c(C)c12 (stereo not drawn) | PFF0160c E182D | enzyme activity, DCIP colorimetric |  |  | baseline: E182D mutant over wild type | IC50 ratio | 2.6
C[N+](C)(C)[C@@H](Cc1c[nH]c(=S)[nH]1)C(=O)[O-] | Ergothioneine transport permease/ergothioneine binding protein EgtU, substrate-binding domain (egtU, Helicobacter pylori, UniProt B5Z7I3, S297F) | ITC |  | 30 °C, substrate-binding domain |  | Ka | 2.93e+07 ± 2.71e+07 M⁻¹

SMILES | target | test | system | setting | how to read | endpoint | result
O=c1c2ccccc2oc2cc(OCCCCc3ccccc3)ccc12 | ache (Electrophorus electricus, UniProt O42275) | enzyme activity |  | 0.73 µM, added: substrate 6.90 mM | higher = faster reaction | reaction velocity | 0.0033 a.u.
O=C(O)COP(=O)(O)O | TPI1 (Saccharomyces cerevisiae, UniProt P00942, Y208T) | enzyme activity, competitive inhibitor, GPDH/NADH-coupled |  | pH 7.5, 25 °C, ionic strength 0.1 NaCl, added: glyceraldehyde 3-phosphate substrate | baseline: mutant over wild type | Ki ratio | 8.3
O=C(Nc1cccnn1)N1CCC(=Cc2cccc(Oc3ccc(C(F)(F)F)cn3)c2)CC1 | GABA transporter, rat | binding |  | 50 µM, added: [3H]GABA |  | inhibition | 65%
COc1cc(N)c(Cl)cc1C(=O)NC1CN2CCC1CC2 (stereo not drawn) | Probable G-protein coupled receptor 45 (GPR45, Homo sapiens, UniProt Q9Y5Y3) | β-arrestin recruitment, TANGO luminescence, item: GPR45 |  | concentration not given | baseline: basal luminescence | log2 fold change | -0.347
CCCn1c(O)nnc1SCC(=O)Nc1cc(C(F)(F)F)ccc1Cl | PFF0160c E182D | enzyme activity, DCIP colorimetric |  |  | baseline: E182D mutant over wild type | IC50 ratio | 0.9
COc1ccc2c3c([nH]c2c1)CCN(C)CC3.O=C(O)/C=C/C(=O)O | Neuronal acetylcholine receptor; alpha9/alpha10 (Homo sapiens, UniProt Q9GZZ6+Q9UGM1) | ion current, inhibitor, two-electrode voltage clamp | Xenopus laevis oocytes | 10 µM, human receptor, added: acetylcholine 6 µM |  | recovery time constant | 9.6 ± 0.3 s
CN1CCN(c2cc(-c3ccncc3)c(-c3ccc4ccccc4c3)nn2)CC1 | MRGPRD (Homo sapiens, UniProt Q8TDS7) | antagonist, FLIPR |  | 10 µM |  | inhibition | 49.2%
COc1ccc(Nc2nn3c(-c4ccccc4)ccnc3c2C(=O)Nc2ccc(Cl)cc2)cc1 | α-amylase isoenzymes | native PAGE densitometry, item: α-amy1 band |  | equal to IC50 |  | band share | 100%
Nc1ncnc2c1ncn2[C@@H]1O[C@H](COP(=O)(O)OP(=O)(O)OP(=O)(O)O)[C@@H](O)[C@H]1O | dnaK (Escherichia coli, UniProt P0A6Y8, E213C/T22C) | conformational change, inducer, stopped-flow fluorescence quenching |  | linker insertion, medium phase |  | rate constant | 205 s⁻¹
CC12CCC(CC1)C(C)(C)O2 | 1,8-cineole 2-endo-monooxygenase (cinA, Citrobacter braakii, UniProt Q8VQF6, N242A) | NADPH turnover |  | concentration not given, N242A mutant | baseline: wild type | relative activity | ~30%
CCCOc1ccccc1-c1nc2sc3c(c2c(=O)[nH]1)CCN(C)C3 | PFF0160c E182D | enzyme activity, DCIP colorimetric |  |  | baseline: E182D mutant over wild type | IC50 ratio | 1.3
O=C(O)Cc1c[nH]cn1 | SLC6A6 (Homo sapiens, UniProt P31641, Y138A) | binding, microscale thermophoresis |  | 488 nM, room temperature, added: 50 nM labelled protein | higher = more binding | normalised MST signal | 0.0414
CC(=O)NC[C@H]1[C@H](O)[C@H](O)[C@@H]2[C@H](O)C[C@@H](CO)N21 | Spodoptera litura β-N-acetylglucosaminidase |  | crude enzyme | 0.0125 µM, run 1, added: p-nitrophenyl GlcNAc |  | inhibition | 49.5%
CCCCOc1ccccc1C(=O)NCc1csc(-c2ccccc2)n1 | PFF0160c E182D | enzyme activity, DCIP colorimetric |  |  | baseline: E182D mutant over wild type | IC50 ratio | 1.4
CN(C(=O)n1cnc(-c2ccc[n+]([O-])c2)c1)C1CCCCC1 | Lysosomal thioesterase PPT2 (Ppt2, Rattus norvegicus, UniProt O70489) | enzyme activity, ABPP | rat, brain | oral, 30 mg/kg/day, 28 days | baseline: vehicle | fold change | -16.1
C[C@H]1CN(c2n[nH]c3nc(N[C@H]4CC[C@H](NS(=O)(=O)CCC(F)(F)F)CC4)ncc23)CCO1 | IRAK1 (Homo sapiens, UniProt P51617) | inhibitor, Kinobeads competition profiling |  | 0.16 µM | baseline: vehicle | relative abundance | 1.07
CC(c1ccc(OC(F)(F)F)cc1)c1nn2c(-c3cccs3)nnc2s1 (stereo not drawn) | PFF0160c E182D | enzyme activity, DCIP colorimetric |  |  | baseline: E182D mutant over wild type | IC50 ratio | 0.6
Clc1cc2c(cc1Cl)Oc1cc(Cl)c(Cl)cc1O2 | Uncharacterized protein (Takifugu rubripes, UniProt Q4JHL3) | reporter gene, agonist, dual-luciferase | COS-7 | 24 h | baseline: top over bottom | maximal fold induction | 2.01 ± 0.52
